Experimental data collected from several papers.
Compare with care: the assays were run in different laboratories. Values joined by “and” are separate records of one study, mostly repeats; a detail may differ. ± marks the error that the study gave.

`CCNCCCn1c2c(c3cc(OC)c(OC)cc3c1=O)C(=O)c1cc3c(nc1-2)OCO3` has a dose-normalized AUC(0-t) of 142 ng·h/mL (male CD1 mouse, plasma; intravenous, 1 mg/kg).
`C[C@H]1CN(C(=O)CC#N)[C@]12CCN(c1ncnc3[nH]ccc13)C2`: “participants with treatment-related TEAEs” 0% (human; oral, 12 mg single dose).
With `O=C(c1cccnc1-c1ccncc1)N1CCC(O)(Cc2ccccc2)CC1` the Vz/F was 1090 L (healthy Japanese adults, plasma; oral, 200 mg twice daily, day 14).
For `CN(C)CCCNC(=O)/C(=C/CCCCC(=O)NO)COc1cccc2ccccc12`, “terminal volume of distribution” read 67.3 L (human patients; intravenous, 187.5 mg/m2, day 1, single dose, mean).
Under “participants with TEAE”, `O=C(COc1ccc(Cl)cc1)NC12CC(c3nnc([C@H]4C[C@@H](OC(F)(F)F)C4)o3)(C1)C2` is recorded as 85.7% (human both sexes; oral, 260 mg once daily, 14 days).
The heart rate of `CO[C@H]1C[C@@H]2CC[C@@H](C)[C@@](O)(O2)C(=O)C(=O)N2CCCC[C@H]2C(=O)O[C@H]([C@H](C)C[C@@H]2CC[C@@H](O)[C@H](OC)C2)CC(=O)[C@H](C)/C=C(\C)[C@@H](O)[C@@H](OC)C(=O)[C@H](C)C[C@H](C)/C=C/C=C/C=C/1C` is reported as 35 ± 3.3 beats/min (healthy adult horses; oral, 0.06 mg/kg, 6 h).
`CC[C@H](C)[C@H](NC(C)=O)C(=O)N[C@H]1CSSC[C@@H](C(=O)N[C@H](C(N)=O)[C@@H](C)O)NC(=O)[C@H](CCCNC(=N)N)NC(=O)[C@H](Cc2c[nH]cn2)NC(=O)[C@H](C)NC(=O)CNC(=O)[C@H](Cc2c[nH]c3ccccc23)NC(=O)[C@H](CC(=O)O)NC(=O)[C@H](CCC(N)=O)NC(=O)[C@H](Cc2c[nH]c3ccccc23)NC(=O)[C@H](C(C)C)NC1=O` gave a retention factor of 0.959 ± 0.008 (isocratic RP-HPLC, C18; 32% acetonitrile, phosphate pH 7.4, 1% TFA; 25 °C).
With `CCc1cc(C(=O)NC)c2nccc(N3CCc4c(cc(Cn5ccnc5)cc4-c4cn(C)nc4C(F)(F)F)C3=O)c2c1` the body weight was 232 ± 4.9 g (Sprague Dawley rat; oral, 100 mg/kg twice daily, day 4, 7-day toxicology study).
`CCn1c2ccccc2c2cc(-n3nncc3-c3ccccc3)ccc21`: “liver enzymes and blood counts” “no effect” (item: ALP, ALT, AST, albumin, bilirubin; BALB/c mice, serum; dose not given, 4 weeks).
For `Cc1ccc([C@@H]2O[C@H](CO)[C@@H](O)[C@H](O)[C@H]2O)cc1Cc1ccc(-c2ccc(F)cc2)s1`, “urinary chloride excretion change” read -8.95 mEq (Japanese type 2 diabetes patients; 400 mg, day 17, 24 h urine collection; baseline: baseline).
`CNC(=O)c1ccc(-c2cnc3ncc(Cc4ccc5ncccc5c4)n3n2)cc1F` — result for “subjects with adverse event”: 0% (healthy human subjects; oral, 200 mg, Diarrhea, grade 3, all causality, together with: itraconazole 200 mg/day).
`C=CC[C@@H]1/C=C(\C)C[C@H](C)C[C@H](OC)[C@H]2O[C@@](O)(C(=O)C(=O)N3CCCC[C@H]3C(=O)O[C@H](/C(C)=C/[C@@H]3CC[C@@H](O)[C@H](OC)C3)[C@H](C)[C@@H](O)CC1=O)[C@H](C)C[C@@H]2OC` has a Vz/F of 881 L and 1370 L (healthy adults; oral, geometric mean).
The AUC(0-12h) of `O=C(O)C[C@H](O)C[C@H](O)/C=C/c1c(C2CC2)nc2ccccc2c1-c1ccc(F)cc1` is reported as 1.72 µM·h (OATP1B1/1B3 humanized mouse, plasma; oral, 5 mg/kg, geometric mean, together with: rifampin 20 mg/kg oral).
`C=CC(=O)NC1CCN(c2ncc3ncnc(Nc4ccc(Oc5ccc6c(c5)ncn6C)c(C)c4)c3n2)CC1` has a blood-to-plasma ratio of 0.828 (item: total radioactivity; healthy male human, whole blood and plasma; oral, 60 mg, 10 h, geometric mean).
For `CCCCCCCCCCCCCCCC(=O)N[C@@H](CCC(=O)NCCCC[C@@H]1NC(=O)[C@H]([C@@H](C)CC)NC(=O)[C@@H](NC(=O)[C@@H]2CCCN2C(=O)[C@H](Cc2ccccc2)NC(=O)[C@H](Cc2c[nH]cn2)NC(=O)[C@@H](NC(=O)[C@H](CC(=O)O)NC(=O)CC(C)C)[C@@H](C)O)CSSC[C@@H](C(=O)N[C@@H](CCCCN)C(N)=O)NC(=O)CNC(=O)[C@H](CCCCN)NC(=O)[C@H](CO)NC(=O)[C@H](CCCNC(=N)N)NC(=O)[C@@H]2CCCN2C(=O)[C@H](CCC(=O)O)NC(=O)[C@H](Cc2ccccc2)NC1=O)C(=O)O`, the Vz/F was 54.2 ± 32 L (healthy volunteers, plasma; subcutaneous, 45 mg single, lyophilised formulation).
`O=C(N[C@H](Cc1c[nH]c2ccccc12)C(=O)Nc1ccncc1)c1ccc(-c2ccc(F)c(Cl)c2)cc1F` has a concentration of 4.44 µM (Swiss Webster mouse, female, muscle; oral, 50 mg/kg, 8 h, 20% Kolliphor vehicle).
`CNCc1ccc(-c2[nH]c3cc(F)cc4c3c2CCNC4=O)cc1` has a neutropenia incidence of 3.8% (human patients; oral, 600 mg twice daily, grade 2).
`CN(CCCNC(=O)c1cc(NC(=O)c2cc(NC(=O)c3cc(NC(=O)c4nc(NC(=O)C[C@@H](N)CNC(=O)c5cc(NC(=O)c6cc(NC(=O)c7cc(NC(=O)c8nccn8C)cn7C)cn6C)cn5C)cn4C)cn3C)cn2C)cn1C)CCCNC(=S)Nc1ccc(-c2c3ccc(=O)cc-3oc3cc(O)ccc23)c(C(=O)O)c1`: “critical aggregation concentration” 1 µM (dynamic light scattering; 0.1% DMSO in PBS; 25 °C).
For `Cc1ccc(C(=O)N(CCCN)C(c2nc3snc(C)c3c(=O)n2Cc2ccccc2)C(C)C)cc1` (stereo not drawn), “patients with adverse event” read 14% (hypophosphataemia grade ≥3 (CTCAE); human patients; intravenous, 16 mg/day).
Under “AUC(0-inf) per dose”, `C=CC(=O)N(C)CCOc1c(N)ncnc1-c1cc(F)cc(NC(=O)c2ccc(C3CC3)cc2F)c1C` is recorded as 5.29 ng·h/mL/mg (human; oral, 50 mg, day 3, arithmetic mean, given alone).
For `Cc1cc([C@H]2C[C@H]3[C@@H](CF)SC(N)=N[C@@]3(c3ccc(F)cc3F)CO2)on1`, the brain concentration was 3.2 µM (male 129/SVE wild-type mouse, brain; subcutaneous, 100 mg/kg, 3 h).
`COc1nnc2ccc(N3CCC(c4ccc(OCCN5CCN(C)C(=O)[C@H]5C)cc4)CC3)nn12`: “median time to platelet nadir” 6 weeks (human, blood; oral, 30 mg once daily).
`Cc1nc(-c2cnc(NC(C)C)n(C)c2=O)ccc1Oc1ccnc(-c2cnn(C)c2)c1` has a Vz of 1.33 L/kg (dog (Beagle, male), plasma; intravenous, 1 mg/kg).
Under “share of total metabolites”, `C=C1C[C@@H]2[C@H](CC[C@]3(C)C(=O)CC[C@@H]23)[C@@]2(C)C=CC(=O)C=C12` is recorded as 19% (postmenopausal women, serum; oral, 25 mg daily, 1 year, UGT2B17 and GSTA1 genotypes).
Under “patients, drug-related TEAEs”, `CC(C)C[C@H](NC(=O)[C@@H](Cc1c[nH]c2ccccc12)NC(=O)[C@H](Cc1ccc(O)cc1)NC(=O)[C@H](CO)NC(=O)[C@H](Cc1c[nH]c2ccccc12)NC(=O)[C@H](Cc1c[nH]cn1)NC(=O)[C@@H]1CCC(=O)N1)C(=O)N[C@@H](CCCNC(=N)N)C(=O)N1CCC[C@H]1C(=O)NCC(N)=O` is recorded as 75% (Chinese CPP children, boys; intramuscular, 22.5 mg, 12 months, day 1, month 6).
`CCn1c(=O)c(-c2cc(NC(=O)Nc3ccccc3)c(F)cc2Br)cc2cnc(NC)cc21` — result for “participants with drug-related TEAE”: 0% (item: gastrointestinal disorders; human, severe hepatic impairment; oral, 50 mg single dose).
Under “central volume (Vc/F)”, `NC(N)=NCCC[C@@H](N)C(=O)N[C@@H](CCCN=C(N)N)C(=O)N1CCC[C@H]1C(=O)N1C[C@H](O)C[C@H]1C(=O)NCC(=O)N[C@@H](Cc1cccs1)C(=O)N[C@@H](CO)C(=O)N1Cc2ccccc2C[C@@H]1C(=O)N1[C@H](C(=O)N[C@@H](CCCN=C(N)N)C(=O)O)C[C@@H]2CCCC[C@@H]21` is recorded as 19.6 L (popPK base model typical value; human; subcutaneous, dose not given, reference weight 70 kg).
`COc1c(N2C[C@@H]3CCCN[C@@H]3C2)c(F)cc2c(=O)c(C(=O)O)cn(C3CC3)c12` — result for “QTcI change from baseline”: 9.6 ms (healthy volunteers; oral, 400 mg single dose, day 5, 4.00 h).
For `O=C(O)CCCOc1ccc([18F])cc1-c1cc(-c2ccccc2C(F)(F)F)n(-c2ccccc2)n1`, the radioactivity uptake was 0.94 ± 0.21 SUV (gamma counting; male ddY mice, bone; intravenous, 2.1 MBq, 15 min).
`CC1(C)CC[C@]2(NC(=O)C(C)(F)F)CC[C@]3(C)[C@H](C(=O)C=C4[C@@]5(C)C=C(C#N)C(=O)C(C)(C)[C@@H]5CC[C@]43C)[C@@H]2C1` gave a trough concentration of 37.7 ng/mL (human, plasma; oral, 150 mg once daily, day 17 predose, mean).
For `CCCCCN1C[C@H](O)[C@@H](O)[C@H](O)[C@@H]1CO`, “mean brain concentration” read 42 ng/g (LC-MS/MS; Hexb-/- mice, female, brain; 30 mg/kg/day).
For `CCO[C@H]1CCN(Cc2c(OC)cc(C)c3[nH]ccc23)[C@H](c2ccc(C(=O)O)cc2)C1`, “incidence of abdominal pain” read 0% (PNH patients, active haemolysis; oral, 50 mg, 4 weeks, treatment).
For `O=C(OC(C(F)(F)F)C(F)(F)F)N1CCN(Cc2cccc(Oc3ccccc3)c2)CC1`, the k2 was 1.61 min⁻¹ (PET blocking study; rhesus monkey, brain Pons; 0.3 mg/kg, compound pretreatment, together with: [18F]T-401 tracer).
`CC(C)n1c(Nc2cccnc2)nc2cnc(Nc3ccc(N4CCN(C)CC4)cc3)nc21` — result for “subjects with adverse event”: 78.6% (item: at least one TEAE; healthy male subjects; oral, 100 mg, study, together with: gemfibrozil).
For `C=CCN1CC(=O)N2[C@@H](Cc3ccc(O)cc3F)C(=O)N(Cc3cccc(N4CC(N5CCN(CC)CC5)C4)n3)C[C@@H]2N1C(=O)NCc1ccccc1`, “treatment-related adverse events” read 0% (item: decreased appetite; human advanced solid tumours; concentration not given, expansion grade ≥3).
`NC1(C(=O)N[C@@H](CCO)c2ccc(Cl)cc2)CCN(c2nc[nH]c3nccc2-3)CC1`: “incidence of Vomiting” 0% (metastatic CRPC patients; 320 mg b.i.d., any grade, treatment-related, together with: enzalutamide 160 mg daily).
The AUC(0-tau) of `Cl.[2H]C([2H])([2H])CC(=O)c1cnc(NC(=O)C2CC2)cc1Nc1cccc(-c2ncn(C([2H])([2H])[2H])n2)c1OC` is reported as 1340 ng·h/mL (human, fasted, multiple dose; oral, 20 mg once daily, tablet, day 1, geometric mean).
With `CC[C@H](C)[C@H](NC(C)=O)C(=O)N[C@H]1CSSC[C@@H](C(=O)N[C@H](C(N)=O)[C@@H](C)O)NC(=O)[C@H](CCCNC(=N)N)NC(=O)[C@H](Cc2c[nH]cn2)NC(=O)[C@@](C)(CC)NC(=O)CNC(=O)[C@H](Cc2c[nH]c3ccccc23)NC(=O)[C@H](CC(=O)O)NC(=O)[C@H](CCC(N)=O)NC(=O)[C@H](Cc2c[nH]c3ccccc23)NC(=O)[C@H](C(C)C)NC1=O` the retention factor was 3.895 ± 0.008 (RP-HPLC, C18; 28% acetonitrile isocratic; pH 7.4).
For `O=C(Nc1nc2cccc(-c3ccc(CN4CCS(=O)(=O)CC4)cc3)n2n1)C1CC1`, “treatment-emergent adverse events” read 4.5% (item: blood and lymphatic disorders; rheumatoid arthritis patients; oral, 75 mg once daily, 4 weeks, any relatedness).

Some of these lines once more:
The AUC(0-12h) of `O=C(O)C[C@H](O)C[C@H](O)/C=C/c1c(C2CC2)nc2ccccc2c1-c1ccc(F)cc1` is reported as 1.72 µM·h (OATP1B1/1B3 humanized mouse, plasma; oral, 5 mg/kg, geometric mean, together with: rifampin 20 mg/kg oral).
`C=CC(=O)NC1CCN(c2ncc3ncnc(Nc4ccc(Oc5ccc6c(c5)ncn6C)c(C)c4)c3n2)CC1` has a blood-to-plasma ratio of 0.828 (item: total radioactivity; healthy male human, whole blood and plasma; oral, 60 mg, 10 h, geometric mean).
For `CCCCCCCCCCCCCCCC(=O)N[C@@H](CCC(=O)NCCCC[C@@H]1NC(=O)[C@H]([C@@H](C)CC)NC(=O)[C@@H](NC(=O)[C@@H]2CCCN2C(=O)[C@H](Cc2ccccc2)NC(=O)[C@H](Cc2c[nH]cn2)NC(=O)[C@@H](NC(=O)[C@H](CC(=O)O)NC(=O)CC(C)C)[C@@H](C)O)CSSC[C@@H](C(=O)N[C@@H](CCCCN)C(N)=O)NC(=O)CNC(=O)[C@H](CCCCN)NC(=O)[C@H](CO)NC(=O)[C@H](CCCNC(=N)N)NC(=O)[C@@H]2CCCN2C(=O)[C@H](CCC(=O)O)NC(=O)[C@H](Cc2ccccc2)NC1=O)C(=O)O`, the Vz/F was 54.2 ± 32 L (healthy volunteers, plasma; subcutaneous, 45 mg single, lyophilised formulation).
`O=C(N[C@H](Cc1c[nH]c2ccccc12)C(=O)Nc1ccncc1)c1ccc(-c2ccc(F)c(Cl)c2)cc1F` has a concentration of 4.44 µM (Swiss Webster mouse, female, muscle; oral, 50 mg/kg, 8 h, 20% Kolliphor vehicle).
`CNCc1ccc(-c2[nH]c3cc(F)cc4c3c2CCNC4=O)cc1` has a neutropenia incidence of 3.8% (human patients; oral, 600 mg twice daily, grade 2).
